Measurements of several laboratories.

| Structure (SMILES) | organism | assay | test system | conditions | MIC |
| --- | --- | --- | --- | --- | --- |
| CC1(C)SC2C(NC(=O)C(NC(=O)C3=C(O)C4(CC4)NC3=O)c3ccccc3)C(=O)N2C1C(=O)O (stereo not shown) | Escherichia coli | broth microdilution | Keio mutant JW5086-3 | 18 h, ferrienterobactin permease gene | 50 µg/mL |
| CC(C)[C@H](NC(=O)[C@H](CCCNC(=N)N)NC(=O)[C@H](Cc1c[nH]c2ccccc12)NC(=O)[C@H](CCCNC(=N)N)NC(=O)[C@H](Cc1c[nH]c2ccccc12)NC(=O)[C@H](Cc1c[nH]c2ccccc12)NC(=O)[C@H](Cc1c[nH]c2ccccc12)NC(=O)[C@H](CCCNC(=N)N)NC(=O)[C@H](Cc1c[nH]c2ccccc12)NC(=O)[C@H](CCCNC(=N)N)NC(=O)CN)C(N)=O | Candida albicans | broth microdilution | 14936, RPMI 1640-MOPS | 48 h, 30 °C | 8 µM |
| CC[C@H](C)[C@H](NC(=O)[C@H](CC(N)=O)NC(=O)[C@H](Cc1ccccc1)NC(=O)[C@H](CCCNC(=N)N)NC(=O)[C@H](CCCNC(=N)N)NC(=O)[C@@H](N)CCCCN)C(=O)N[C@@H](CCCCN)C(=O)N[C@@H](CC(C)C)C(=O)N[C@@H](Cc1c[nH]c2ccccc12)C(=O)N[C@@H](CCCCN)C(=O)N[C@H](C(=O)N[C@@H](Cc1ccccc1)C(=O)O)[C@@H](C)O | Staphylococcus haemolyticus |  |  |  | 50 µg/mL |
| CC(C)C[C@H](NC(=O)[C@H](CCCNC(=N)N)NC(=O)[C@H](Cc1c[nH]c2ccccc12)NC(=O)[C@H](CCCNC(=N)N)NC(=O)[C@H](Cc1c[nH]c2ccccc12)NC(=O)[C@H](Cc1c[nH]c2ccccc12)NC(=O)[C@H](Cc1c[nH]c2ccccc12)NC(=O)[C@H](CCCNC(=N)N)NC(=O)[C@H](Cc1c[nH]c2ccccc12)NC(=O)[C@@H](N)CCCNC(=N)N)C(N)=O | Candida albicans | broth microdilution | CGMCC 2.209, RPMI 1640-MOPS | 48 h, 30 °C, with: FeCl3 4 µM | 16 µM |
| CC1(C)SC2C(NC(=O)C(NC(=O)C3=C(O)C(Cc4ccc(O)cc4)NC3=O)c3ccccc3)C(=O)N2C1C(=O)O (stereo not shown) | Escherichia coli | broth microdilution | isolate IU, CTX-M-14, TEM-1 | no clavulanic acid | > 200 µg/mL |
| N=C(N)NCCC[C@H](NC(=O)CN)C(=O)N[C@@H](Cc1c[nH]c2ccccc12)C(=O)N[C@@H](CCCNC(=N)N)C(=O)N[C@@H](Cc1c[nH]c2ccccc12)C(=O)N[C@@H](Cc1c[nH]c2ccccc12)C(=O)N[C@@H](Cc1c[nH]c2ccccc12)C(=O)N[C@@H](CCCNC(=N)N)C(=O)N[C@@H](Cc1c[nH]c2ccccc12)C(=O)N[C@@H](CCCNC(=N)N)C(=O)N[C@@H](Cc1c[nH]c2ccccc12)C(N)=O | Candida albicans | broth microdilution | 17546, RPMI 1640-MOPS | 48 h, 30 °C | 8 µM |
| O=[N+]([O-])c1ccc(C2=[N+]([O-])c3ccccc3N3CCN=C23)cc1 | Bacteroides fragilis |  |  |  | 0.06 to 0.125 µg/mL |
| CC1(C)SC2C(NC(=O)C(NC(=O)C3=C(O)C(Cc4ccc([N+](=O)[O-])cc4)NC3=O)c3ccccc3)C(=O)N2C1C(=O)O (stereo not shown) | Escherichia coli | broth microdilution | isolate IU 356 A, KPC-3, VIM-1, TEM | no clavulanic acid | > 200 µg/mL |
| N=C(N)NCCC[C@H](NC(=O)[C@H](Cc1c[nH]c2ccccc12)NC(=O)[C@H](CCCNC(=N)N)NC(=O)[C@H](Cc1c[nH]c2ccccc12)NC(=O)[C@H](Cc1c[nH]c2ccccc12)NC(=O)[C@H](Cc1c[nH]c2ccccc12)NC(=O)[C@H](CCCNC(=N)N)NC(=O)[C@H](Cc1c[nH]c2ccccc12)NC(=O)[C@@H](N)CCCNC(=N)N)C(=O)N[C@@H](Cc1c[nH]c2ccccc12)C(N)=O | Candida albicans | broth microdilution | SP3903, RPMI 1640-MOPS | 48 h, 30 °C | 8 µM |
| C[C@@H](O)[C@H](NC(=O)[C@H](Cc1ccccc1)NC(=O)[C@H](Cc1c[nH]c2ccccc12)NC(=O)[C@H](Cc1ccccc1)NC(=O)[C@@H](NC(=O)[C@H](Cc1ccccc1)NC(=O)[C@H](CCCNC(=N)N)NC(=O)[C@@H](N)CCCNC(=N)N)[C@@H](C)O)C(=O)N[C@@H](Cc1ccccc1)C(=O)N[C@@H](CCCNC(=N)N)C(=O)N[C@@H](CCCNC(=N)N)C(N)=O | Lactiplantibacillus plantarum |  | 7469, probiotic strain | 24 h, 37 °C, tested up to 128 µM | 128 µM |
| N=C(N)NCCC[C@H](NC(=O)CCCCCNC(=O)[C@H](CCCNC(=N)N)NC(=O)[C@H](CCCNC(=N)N)NC(=O)CCCCCNC(=O)[C@H](CCCNC(=N)N)NC(=O)[C@H](CCCNC(=N)N)NC(=O)CCCCCNC(=O)[C@H](CCCNC(=N)N)NC(=O)[C@H](CCCNC(=N)N)NC(=O)CCCCCNC(=O)[C@@H](N)CCCNC(=N)N)C(=O)NCCCCCC(=O)NCCC(=O)O | Escherichia coli |  | ATCC 25922 | 1 h, 37 °C, after 25% human serum | 96 µM |
| CN[C@H](CC(C)C)C(=O)N[C@H]1C(=O)N[C@@H](CC(N)=O)C(=O)N[C@H]2C(=O)NC3C(=O)N[C@H](C(=O)N[C@H](C(=O)NCCC[N+](C)(C)C)c4cc(O)cc(O)c4-c4cc3ccc4O)[C@H](O)c3ccc(c(Cl)c3)Oc3cc2cc(c3OC2OC(CO)C(O)[C@H](O)[C@@H]2O[C@H]2CC(C)(NCc3ccc(-c4ccc(Cl)cc4)cc3)[C@H](O)[C@H](C)O2)Oc2ccc(cc2Cl)[C@H]1O (stereo partly shown) | Enterococcus faecium |  | VanA VRE ATCC BAA-2317 | no LTA | 0.3 µg/mL |
| CC(C)C[C@H](NC(=O)[C@H](CCCNC(=N)N)NC(=O)[C@H](Cc1c[nH]c2ccccc12)NC(=O)[C@H](CCCNC(=N)N)NC(=O)[C@H](Cc1c[nH]c2ccccc12)NC(=O)[C@H](Cc1c[nH]c2ccccc12)NC(=O)[C@H](Cc1c[nH]c2ccccc12)NC(=O)[C@H](CCCNC(=N)N)NC(=O)[C@H](Cc1c[nH]c2ccccc12)NC(=O)[C@H](CCCNC(=N)N)NC(=O)CN)C(N)=O | Candida albicans | broth microdilution | CGMCC 2.209, RPMI 1640-MOPS | 48 h, 30 °C, with: MgCl2 1 mM | 64 µM |
| CC(C)C[C@@H]1NC(=O)[C@H](Cc2ccccc2)NC(=O)[C@H](Cc2ccc(O)cc2)NC(=O)[C@H](CC(C)C)NC(=O)[C@H](CCC(=O)O)NC(=O)[C@H](Cc2ccccc2)NC(=O)[C@H](CCCNC(=N)N)NC(=O)[C@H](CCC(N)=O)NC(=O)[C@H](CC(C)C)NC(=O)[C@H](CC(=O)O)NC(=O)[C@@H]2CCCN2C(=O)[C@H](CCCCN)NC(=O)[C@H](C(C)C)NC(=O)[C@H](CC(N)=O)NC(=O)[C@H](Cc2ccc(O)cc2)NC(=O)[C@H]([C@@H](C)O)NC(=O)[C@@H](N)CSSC[C@@H](C(=O)O)NC(=O)[C@H]([C@@H](C)O)NC(=O)[C@H](C(C)C)NC(=O)[C@H]([C@@H](C)O)NC(=O)CNC1=O | Shigella flexneri | broth dilution | CGMCC strain | 24 h | > 40 µM |
| CC(C)(C)OCC1NC(=O)C(C(=O)NC(C(=O)NC2C(=O)N3C2SC(C)(C)C3C(=O)O)c2ccccc2)=C1O (stereo not shown) | Escherichia coli | broth microdilution | ATCC 35218, low-level TEM-1 | no clavulanic acid | > 200 µg/mL |
| N=C(N)NCCC[C@H](NC(=O)CN)C(=O)N[C@@H](Cc1c[nH]c2ccccc12)C(=O)N[C@@H](CCCNC(=N)N)C(=O)N[C@@H](Cc1c[nH]c2ccccc12)C(=O)N[C@@H](Cc1c[nH]c2ccccc12)C(=O)N[C@@H](Cc1c[nH]c2ccccc12)C(=O)N[C@@H](CCCNC(=N)N)C(=O)N[C@@H](Cc1c[nH]c2ccccc12)C(=O)N[C@@H](CCCNC(=N)N)C(=O)N[C@@H](Cc1ccccc1)C(N)=O | Candida albicans | broth microdilution | 56467, RPMI 1640-MOPS | 48 h, 30 °C | 16 µM |
| CC1(C)SC2C(NC(=O)C(NC(=O)C3=C(O)C4CCCN4C3=O)c3ccccc3)C(=O)N2C1C(=O)O (stereo not shown) | Escherichia coli | broth microdilution | isolate IU, CTX-M-14, TEM-1 | with: clavulanic acid 6 µg/mL | > 200 µg/mL |
| CSCC[C@H](NC(=O)[C@H](CCCCN)NC(=O)[C@H](CCSC)NC(=O)[C@H](CCCCN)NC(=O)[C@H](CC(C)C)NC(=O)[C@H](CC(C)C)NC(=O)[C@H](CCCNC(=N)N)NC(=O)[C@H](CC(=O)O)NC(=O)[C@H](CCCCN)NC(=O)[C@H](Cc1c[nH]c2ccccc12)NC(=O)[C@H](Cc1ccc(O)cc1)NC(=O)[C@H](Cc1ccccc1)NC(=O)[C@H](CCCNC(=N)N)NC(=O)[C@@H]1CCCN1C(=O)[C@@H](NC(=O)[C@H](CCCNC(=N)N)NC(=O)[C@@H](N)CO)C(C)C)C(=O)N[C@@H](C)C(=O)O | Staphylococcus haemolyticus |  |  |  | 200 µg/mL |
| CC1(C)SC2C(NC(=O)C(NC(=O)C3=C(O)CN(c4ccccc4)C3=O)c3ccccc3)C(=O)N2C1C(=O)O (stereo not shown) | Escherichia coli | broth microdilution | Keio mutant JW0587-1 | 18 h, enterobactin-related gene | 100 µg/mL |
| CCCCCCCCCC(=O)N[C@@H](Cc1c[nH]c2ccccc12)C(=O)N[C@H](CC(N)=O)C(=O)N[C@@H](CC(=O)O)C(=O)N[C@@H]1C(=O)NCC(=O)N[C@@H](CCCN)C(=O)N[C@@H](CC(=O)O)C(=O)N[C@H](C)C(=O)N[C@@H](CC(=O)O)C(=O)NCC(=O)N[C@H](CO)C(=O)N[C@@H]([C@H](C)CC(=O)O)C(=O)N[C@@H](CC(=O)c2ccccc2N)C(=O)O[C@@H]1C | Staphylococcus aureus | broth microdilution | BR-VRSA strain 880, Mueller-Hinton broth, Mg2+ 10 mg/L | 16 h, with: Ca2+ 0 mM | > 128 µg/mL |
| C[C@H](NC(=O)[C@H](CCCNC(=N)N)NC(=O)[C@H](Cc1c[nH]c2ccccc12)NC(=O)[C@H](CCCNC(=N)N)NC(=O)[C@H](Cc1c[nH]c2ccccc12)NC(=O)[C@H](Cc1c[nH]c2ccccc12)NC(=O)[C@H](Cc1c[nH]c2ccccc12)NC(=O)[C@H](CCCNC(=N)N)NC(=O)[C@H](Cc1c[nH]c2ccccc12)NC(=O)[C@H](CCCNC(=N)N)NC(=O)CN)C(N)=O | Candida albicans | broth microdilution | CGMCC 2.209, RPMI 1640-MOPS | 48 h, 30 °C | 8 µM |
| CN1CC(O)=C(C(=O)NC(C(=O)NC2C(=O)N3C2SC(C)(C)C3C(=O)O)c2ccccc2)C1=O (stereo not shown) | Escherichia coli | broth microdilution | ATCC 35218, low-level TEM-1 | with: clavulanic acid 6 µg/mL | > 200 µg/mL |

Some of these lines once more:
| Structure (SMILES) | organism | assay | test system | conditions | MIC |
| --- | --- | --- | --- | --- | --- |
| CSCC[C@H](NC(=O)[C@H](CCCCN)NC(=O)[C@H](CCSC)NC(=O)[C@H](CCCCN)NC(=O)[C@H](CC(C)C)NC(=O)[C@H](CC(C)C)NC(=O)[C@H](CCCNC(=N)N)NC(=O)[C@H](CC(=O)O)NC(=O)[C@H](CCCCN)NC(=O)[C@H](Cc1c[nH]c2ccccc12)NC(=O)[C@H](Cc1ccc(O)cc1)NC(=O)[C@H](Cc1ccccc1)NC(=O)[C@H](CCCNC(=N)N)NC(=O)[C@@H]1CCCN1C(=O)[C@@H](NC(=O)[C@H](CCCNC(=N)N)NC(=O)[C@@H](N)CO)C(C)C)C(=O)N[C@@H](C)C(=O)O | Staphylococcus haemolyticus |  |  |  | 200 µg/mL |
| C[C@@H](O)[C@H](NC(=O)[C@H](Cc1ccccc1)NC(=O)[C@H](Cc1c[nH]c2ccccc12)NC(=O)[C@H](Cc1ccccc1)NC(=O)[C@@H](NC(=O)[C@H](Cc1ccccc1)NC(=O)[C@H](CCCNC(=N)N)NC(=O)[C@@H](N)CCCNC(=N)N)[C@@H](C)O)C(=O)N[C@@H](Cc1ccccc1)C(=O)N[C@@H](CCCNC(=N)N)C(=O)N[C@@H](CCCNC(=N)N)C(N)=O | Lactiplantibacillus plantarum |  | 7469, probiotic strain | 24 h, 37 °C, tested up to 128 µM | 128 µM |
| O=[N+]([O-])c1ccc(C2=[N+]([O-])c3ccccc3N3CCN=C23)cc1 | Bacteroides fragilis |  |  |  | 0.06 to 0.125 µg/mL |
| N=C(N)NCCC[C@H](NC(=O)CN)C(=O)N[C@@H](Cc1c[nH]c2ccccc12)C(=O)N[C@@H](CCCNC(=N)N)C(=O)N[C@@H](Cc1c[nH]c2ccccc12)C(=O)N[C@@H](Cc1c[nH]c2ccccc12)C(=O)N[C@@H](Cc1c[nH]c2ccccc12)C(=O)N[C@@H](CCCNC(=N)N)C(=O)N[C@@H](Cc1c[nH]c2ccccc12)C(=O)N[C@@H](CCCNC(=N)N)C(=O)N[C@@H](Cc1c[nH]c2ccccc12)C(N)=O | Candida albicans | broth microdilution | 17546, RPMI 1640-MOPS | 48 h, 30 °C | 8 µM |
